Published values pooled from the literature.
Compare with care: the assays were run in different laboratories. Values joined by “and” are separate records of one study, mostly repeats; a detail may differ. Numbers after ± are the reported error.
MTAP: S-methyl-5'-thioadenosine phosphorylase (MTAP, Homo sapiens, UniProt Q13126)
UniProt Q13126, sequence (whole entry, looked up): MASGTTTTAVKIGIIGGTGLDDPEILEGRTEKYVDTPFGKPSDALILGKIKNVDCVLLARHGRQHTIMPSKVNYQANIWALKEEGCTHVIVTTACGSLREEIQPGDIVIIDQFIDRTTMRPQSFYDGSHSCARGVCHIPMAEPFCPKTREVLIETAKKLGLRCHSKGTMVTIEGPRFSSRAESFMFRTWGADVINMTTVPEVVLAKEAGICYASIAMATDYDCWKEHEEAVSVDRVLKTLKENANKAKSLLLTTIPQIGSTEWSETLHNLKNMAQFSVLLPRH
GSTP1: Glutathione S-transferase P (GSTP1, Homo sapiens, UniProt P09211)
UniProt P09211, sequence (whole entry, looked up): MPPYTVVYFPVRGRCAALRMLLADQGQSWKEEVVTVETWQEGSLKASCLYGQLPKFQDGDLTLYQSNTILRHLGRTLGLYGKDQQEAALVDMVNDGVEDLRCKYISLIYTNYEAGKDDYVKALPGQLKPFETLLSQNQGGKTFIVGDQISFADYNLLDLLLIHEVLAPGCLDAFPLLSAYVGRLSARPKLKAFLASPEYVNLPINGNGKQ
CYP1B1: Cytochrome P450 1B1 (CYP1B1, Homo sapiens, UniProt Q16678)
UniProt Q16678, sequence (whole entry, looked up): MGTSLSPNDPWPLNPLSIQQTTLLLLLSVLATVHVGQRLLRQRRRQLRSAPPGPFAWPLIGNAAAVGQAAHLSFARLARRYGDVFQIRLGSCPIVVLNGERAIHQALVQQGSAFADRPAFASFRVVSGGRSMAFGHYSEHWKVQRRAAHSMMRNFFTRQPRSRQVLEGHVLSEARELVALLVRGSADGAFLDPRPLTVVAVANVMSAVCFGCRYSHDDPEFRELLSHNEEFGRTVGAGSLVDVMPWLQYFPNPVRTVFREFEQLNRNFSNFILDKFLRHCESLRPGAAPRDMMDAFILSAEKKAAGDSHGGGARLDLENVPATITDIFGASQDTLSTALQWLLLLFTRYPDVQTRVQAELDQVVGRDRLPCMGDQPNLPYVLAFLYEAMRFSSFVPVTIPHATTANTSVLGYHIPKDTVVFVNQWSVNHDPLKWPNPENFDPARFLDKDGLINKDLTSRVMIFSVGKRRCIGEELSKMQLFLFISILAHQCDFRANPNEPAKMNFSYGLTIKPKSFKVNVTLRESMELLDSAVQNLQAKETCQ
methionine aminopeptidase: methionine aminopeptidase (Acinetobacter baumannii, UniProt V5VCW7)
UniProt Q38087, sequence (whole entry, unmodified, looked up): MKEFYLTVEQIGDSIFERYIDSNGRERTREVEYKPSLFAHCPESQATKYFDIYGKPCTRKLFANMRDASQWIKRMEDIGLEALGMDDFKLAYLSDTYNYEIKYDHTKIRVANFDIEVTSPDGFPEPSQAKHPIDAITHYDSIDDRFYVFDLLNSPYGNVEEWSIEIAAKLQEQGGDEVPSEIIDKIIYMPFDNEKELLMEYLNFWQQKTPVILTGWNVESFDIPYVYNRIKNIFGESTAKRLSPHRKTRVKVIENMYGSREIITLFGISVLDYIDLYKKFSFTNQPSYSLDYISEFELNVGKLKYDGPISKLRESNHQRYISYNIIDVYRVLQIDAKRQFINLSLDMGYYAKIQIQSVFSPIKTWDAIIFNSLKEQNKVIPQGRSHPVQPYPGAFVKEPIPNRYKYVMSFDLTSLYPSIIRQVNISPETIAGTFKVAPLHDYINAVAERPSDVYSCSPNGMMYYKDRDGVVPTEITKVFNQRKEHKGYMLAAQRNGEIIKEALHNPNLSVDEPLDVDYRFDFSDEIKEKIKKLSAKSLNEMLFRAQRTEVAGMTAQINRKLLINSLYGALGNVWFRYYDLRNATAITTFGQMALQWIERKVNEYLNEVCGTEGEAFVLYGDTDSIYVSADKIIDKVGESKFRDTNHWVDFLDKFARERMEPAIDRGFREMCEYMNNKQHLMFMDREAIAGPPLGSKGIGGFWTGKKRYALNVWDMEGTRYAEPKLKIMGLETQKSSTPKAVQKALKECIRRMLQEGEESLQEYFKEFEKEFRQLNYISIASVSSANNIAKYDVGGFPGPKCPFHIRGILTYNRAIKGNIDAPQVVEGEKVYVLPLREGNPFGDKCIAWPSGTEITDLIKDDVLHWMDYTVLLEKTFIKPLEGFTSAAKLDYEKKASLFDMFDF
UniProt P06808, sequence (whole entry, looked up): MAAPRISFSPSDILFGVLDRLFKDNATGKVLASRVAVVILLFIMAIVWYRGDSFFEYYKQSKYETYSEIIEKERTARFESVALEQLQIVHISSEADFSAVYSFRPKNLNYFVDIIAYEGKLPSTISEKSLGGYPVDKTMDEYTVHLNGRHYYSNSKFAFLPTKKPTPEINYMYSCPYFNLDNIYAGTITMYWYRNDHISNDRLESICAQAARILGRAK
UniProt P13304, sequence (whole entry, looked up): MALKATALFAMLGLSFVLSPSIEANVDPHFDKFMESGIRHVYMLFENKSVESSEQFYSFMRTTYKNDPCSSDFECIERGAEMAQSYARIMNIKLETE
UniProt Q4QEB3, sequence (whole entry, looked up): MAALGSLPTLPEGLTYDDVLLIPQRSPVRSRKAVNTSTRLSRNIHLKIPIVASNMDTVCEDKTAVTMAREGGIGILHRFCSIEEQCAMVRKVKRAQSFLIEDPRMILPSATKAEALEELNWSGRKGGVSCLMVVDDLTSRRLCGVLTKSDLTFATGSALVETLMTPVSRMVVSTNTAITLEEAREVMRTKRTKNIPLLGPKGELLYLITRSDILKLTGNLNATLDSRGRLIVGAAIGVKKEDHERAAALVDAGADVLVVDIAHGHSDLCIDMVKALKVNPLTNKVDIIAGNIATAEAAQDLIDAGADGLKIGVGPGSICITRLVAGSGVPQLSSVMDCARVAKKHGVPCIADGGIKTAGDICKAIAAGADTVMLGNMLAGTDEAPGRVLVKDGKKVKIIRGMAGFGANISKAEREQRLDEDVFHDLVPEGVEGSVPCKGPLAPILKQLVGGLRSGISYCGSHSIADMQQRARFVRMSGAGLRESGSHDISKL
UniProt P10408, sequence (whole entry, unmodified, looked up): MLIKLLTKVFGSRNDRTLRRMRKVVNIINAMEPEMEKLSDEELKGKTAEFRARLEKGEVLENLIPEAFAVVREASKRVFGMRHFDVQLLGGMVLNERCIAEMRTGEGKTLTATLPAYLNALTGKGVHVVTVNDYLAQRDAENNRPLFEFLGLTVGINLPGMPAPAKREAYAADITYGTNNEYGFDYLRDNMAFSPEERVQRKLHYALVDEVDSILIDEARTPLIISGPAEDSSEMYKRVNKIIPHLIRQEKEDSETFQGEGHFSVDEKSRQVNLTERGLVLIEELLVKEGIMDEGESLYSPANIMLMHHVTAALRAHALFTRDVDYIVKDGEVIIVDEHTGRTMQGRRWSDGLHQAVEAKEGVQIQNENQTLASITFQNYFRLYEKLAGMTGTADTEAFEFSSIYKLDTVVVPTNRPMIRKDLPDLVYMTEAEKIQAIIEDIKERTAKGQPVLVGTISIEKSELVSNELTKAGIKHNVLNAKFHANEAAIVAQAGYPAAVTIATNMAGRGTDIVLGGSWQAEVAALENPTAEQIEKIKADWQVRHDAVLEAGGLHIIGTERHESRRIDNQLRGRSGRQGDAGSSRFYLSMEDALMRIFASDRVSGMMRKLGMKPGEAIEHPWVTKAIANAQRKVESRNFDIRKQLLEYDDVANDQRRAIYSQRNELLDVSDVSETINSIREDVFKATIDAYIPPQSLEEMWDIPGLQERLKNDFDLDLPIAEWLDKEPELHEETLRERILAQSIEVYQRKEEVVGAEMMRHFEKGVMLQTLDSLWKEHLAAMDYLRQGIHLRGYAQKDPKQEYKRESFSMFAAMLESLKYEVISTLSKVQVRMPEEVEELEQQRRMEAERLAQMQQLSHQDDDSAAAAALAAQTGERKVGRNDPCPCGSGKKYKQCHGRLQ
UniProt Q84HF5, sequence (whole entry, looked up): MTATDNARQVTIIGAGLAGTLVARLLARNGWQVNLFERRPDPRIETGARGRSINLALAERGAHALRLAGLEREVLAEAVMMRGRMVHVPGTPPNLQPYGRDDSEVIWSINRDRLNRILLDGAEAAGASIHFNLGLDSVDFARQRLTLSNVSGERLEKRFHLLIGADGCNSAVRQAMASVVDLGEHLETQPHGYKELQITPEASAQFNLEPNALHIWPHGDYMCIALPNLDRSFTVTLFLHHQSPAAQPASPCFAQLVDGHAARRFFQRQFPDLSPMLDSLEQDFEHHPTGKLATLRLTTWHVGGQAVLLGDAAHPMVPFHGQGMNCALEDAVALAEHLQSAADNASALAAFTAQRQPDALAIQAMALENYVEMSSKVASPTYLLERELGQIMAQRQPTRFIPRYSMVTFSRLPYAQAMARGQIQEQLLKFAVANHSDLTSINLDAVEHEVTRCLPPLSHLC
UniProt Q97W02, sequence (whole entry, looked up): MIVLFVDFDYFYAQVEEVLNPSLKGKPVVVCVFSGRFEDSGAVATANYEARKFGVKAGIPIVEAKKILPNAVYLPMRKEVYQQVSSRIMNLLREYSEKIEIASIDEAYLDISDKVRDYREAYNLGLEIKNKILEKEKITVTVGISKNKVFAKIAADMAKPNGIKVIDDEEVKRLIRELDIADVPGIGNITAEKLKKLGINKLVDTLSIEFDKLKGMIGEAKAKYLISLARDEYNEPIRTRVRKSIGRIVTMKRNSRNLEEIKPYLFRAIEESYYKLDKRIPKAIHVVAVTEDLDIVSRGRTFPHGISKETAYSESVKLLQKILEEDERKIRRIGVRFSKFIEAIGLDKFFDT
UniProt E9QYP0, sequence (whole entry, looked up): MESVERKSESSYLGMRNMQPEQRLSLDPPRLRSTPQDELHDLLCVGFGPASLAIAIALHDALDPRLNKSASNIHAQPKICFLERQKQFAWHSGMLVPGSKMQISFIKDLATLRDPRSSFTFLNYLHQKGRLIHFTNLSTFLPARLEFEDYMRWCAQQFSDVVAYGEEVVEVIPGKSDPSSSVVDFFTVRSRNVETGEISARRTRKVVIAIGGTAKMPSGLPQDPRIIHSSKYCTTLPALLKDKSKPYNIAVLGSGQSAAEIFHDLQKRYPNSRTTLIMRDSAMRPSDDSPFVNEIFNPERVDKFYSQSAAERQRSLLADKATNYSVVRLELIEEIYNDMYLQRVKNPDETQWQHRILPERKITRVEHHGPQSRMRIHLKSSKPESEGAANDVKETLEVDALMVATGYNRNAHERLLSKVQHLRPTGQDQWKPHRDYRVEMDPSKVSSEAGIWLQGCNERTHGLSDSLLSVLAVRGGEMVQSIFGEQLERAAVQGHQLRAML

Molecule = C[n+]1cc2c3c(ccc2c2ccc4cc5c(cc4c21)OCO5)OCO3; target = L-ornithine N(5)-monooxygenase (Neosartorya fumigata, UniProt E9QYP0); assay = fluorescence polarization displacement; setting = pH 7.0, together with: 30 nM fluorescent probe; Kd = 110 ± 10 µM
Molecule = Nc1nc2c(ncn2[C@H]2C[C@H](O)[C@@H](COP(=O)(O)OP(=O)(O)OP(=O)(O)O)O2)c(=O)[nH]1; target = DNA-directed DNA polymerase, with primer/template (43, Escherichia phage RB69, UniProt Q38087, D222A/D327A); assay = binding, stopped-flow fluorescence; setting = opposite tC°; Kd = 170 µM
Molecule = CC(=O)N[C@@H](CO)C(=O)N[C@H]1CSSC[C@@H](C(=O)NCC(=O)N[C@@H](CO)C(=O)NCC(=O)N[C@@H](CO)C(=O)N[C@@H](CC(=O)O)C(=O)N[C@@H](Cc2ccc(O)cc2)C(=O)N[C@@H](CCCCN)C(=O)N[C@@H](CC(=O)O)C(=O)N[C@@H](CC(=O)O)C(=O)N[C@@H](CC(=O)O)C(=O)N[C@@H](CC(=O)O)C(=O)N[C@@H](CCCCN)C(N)=O)NC(=O)[C@H](Cc2ccccc2)NC(=O)[C@@H]2CCCN2C(=O)[C@H](Cc2c[nH]c3ccccc23)NC(=O)[C@H](CC(C)C)NC(=O)[C@H](CC(C)C)NC(=O)[C@H](CCC(N)=O)NC(=O)[C@H](Cc2ccccc2)NC(=O)[C@H](C)NC(=O)[C@H](CCCNC(=N)N)NC(=O)[C@H](Cc2ccccc2)NC1=O; target = Gastric inhibitory polypeptide receptor, extracellular domain (GIPR, Homo sapiens, UniProt P48546); assay = binding, biolayer interferometry; Kd = 0.184 µM
Molecule = 5′-methylthioadenosine; target = MTAP; assay = ligand, isothermal titration calorimetry; setting = pH 7.4, 25 °C, second set of sites; Kd = 0.7 µM
Molecule = CSCC1NC(c2c[nH]c3c(N)ncnc23)[C@@H](O)[C@H]1O (some centres unmarked); target = MTAP; assay = binding third site, isothermal titration calorimetry; Kd = 0.7 ± 0.3 µM
Molecule = CC[C@H](C)[C@H](NC(=O)[C@@H](NC(=O)[C@@H]1CCCN1C(=O)[C@@H](NC(=O)[C@H](CCCCN)NC(=O)CN)C(C)C)[C@@H](C)CC)C(=O)N[C@@H](Cc1ccc(O)cc1)C(=O)N[C@H]1CSSC[C@@H](C(=O)N[C@@H](CCCCN)C(=O)N[C@@H](CCCNC(=N)N)C(=O)N[C@@H](CCSC)C(=O)O)NC(=O)[C@H](C(C)C)NC(=O)CNC(=O)[C@H]([C@@H](C)O)NC(=O)[C@H](CCCCN)NC(=O)[C@H](CCCNC(=N)N)NC(=O)[C@H](CC(N)=O)NC1=O; target = lptA (Escherichia coli, UniProt P0ADV1); assay = binding, BLI; Kd = 0.002 µM
Molecule = CC1=C(/C=C/C(C)=C/C=C/C(C)=C/C=C/C=C(C)/C=C/C=C(C)/C=C/C2=C(C)C(=O)[C@@H](O)CC2(C)C)C(C)(C)C[C@H](O)C1=O; target = GSTP1; assay = binding, SPR; Kd = 1.26 µM
Molecule = TAMRA-ATP; target = mutS (Escherichia coli, UniProt P23909); assay = binding, fluorescence anisotropy; setting = pH 7.5, room temperature, labelled ATP analogue, no DNA, high-affinity site, together with: 10 mM MgCl2; Kd = 0.034 ± 0.002 µM
Molecule = phosphate; target = t/rI (Enterobacteria phage T4, UniProt P06808+P13304); assay = binding, fluorescence quenching; setting = pH 7.5; Kd = 18600 µM
Molecule = CC(C)(C)c1cc(S)cc(C(C)(C)C)c1O; target = ktrA (Bacillus subtilis, UniProt O32080); assay = binding, thermal shift; Kd = 25 µM
Molecule = O=C1OC2c3ccccc3CC2/C1=C\O (racemic); target = RMS3 (Lathyrus oleraceus, UniProt A0A109QYD3); assay = binding, tryptophan fluorescence; Kd = 271 µM
Molecule = Nc1nc2c(ncn2[C@@H]2O[C@H](COP(=O)(O)O)[C@@H](O)[C@H]2O)c(=O)[nH]1; target = GMP reductase (GMPR, Leishmania major, UniProt Q4QEB3); assay = binding; Kd = 261 ± 38 µM
Molecule = CC[C@H](C)[C@H](NC(=O)[C@@H](NC(=O)[C@H](CO)NC(=O)[C@H](CCC(N)=O)NC(=O)[C@H](CCCCN)NC(=O)[C@@H](N)CCSC)[C@@H](C)O)C(=O)N[C@@H](C)C(=O)N[C@@H](CC(C)C)C(=O)N[C@@H](C)C(=O)N[C@@H](CC(C)C)C(=O)N[C@@H](CC(C)C)C(=O)N1CCC[C@H]1C(=O)N[C@@H](CC(C)C)C(=O)N[C@@H](CC(C)C)C(=O)N[C@@H](Cc1ccccc1)C(=O)N[C@H](C(=O)N1CCC[C@H]1C(=O)N[C@H](C(=O)N[C@H](C(=O)N[C@@H](CCCCN)C(=O)N[C@@H](C)C(=O)N[C@@H](CS)C(N)=O)[C@@H](C)O)C(C)C)[C@@H](C)O; target = Protein translocase subunit SecA (secA, Escherichia coli, UniProt P10408, C885S/C887S/C896S/C98S/S696C); assay = fluorescence anisotropy; setting = pH 7.5, mutant, together with: IAN-labelled signal peptide 1 µM; Kd = 2.5 ± 0.2 µM
Molecule = CC(=O)N[C@@H](CC(C)C)C(=O)N[C@@H](CCCCN)C(=O)N[C@@H](CCCCN)C(=O)N[C@@H](CC(C)C)C(=O)N[C@@H](CC(C)C)C(=O)N[C@@H](CCCCN)C(=O)N[C@@H](CC(C)C)C(=O)N[C@@H](CC(C)C)C(=O)N[C@@H](CCCCN)C(=O)N[C@@H](CCCCN)C(=O)N[C@@H](CC(C)C)C(=O)N[C@@H](CC(C)C)C(=O)N[C@@H](CCCCN)C(=O)N[C@@H](Cc1c[nH]c2ccccc12)C(=O)N[C@@H](C)C(=O)NCC(N)=O; target = HCV IRES domain IV hairpin; assay = competitive fluorescence anisotropy; setting = pH 7.4, 20 °C, together with: rhodamine-Rev peptide; Kd = 0.00069 ± 6e-05 µM
Molecule = CC[C@H](C)[C@@H]1NC(=O)CNC(=O)[C@H](C)NC(=O)[C@@H]2CCCN2C(=O)[C@H]([C@@H](C)CC)NC(=O)[C@H](CCCNC(=N)N)NC(=O)[C@@H](N)CSSC[C@@H](C(=O)NCC(=O)NCC(=O)NCC(=O)NCC(=O)N[C@@H](CO)C(=O)N2CCC[C@H]2C(=O)N[C@@H](C)C(=O)N2CCC[C@H]2C(=O)N[C@@H](C)C(=O)N[C@@H](CCCCN)C(=O)O)NC(=O)[C@H](Cc2ccc(O)cc2)NC(=O)[C@H](CCCNC(=N)N)NC(=O)[C@H](CCCNC(=N)N)NC(=O)[C@H](CCC(=O)O)NC(=O)CNC(=O)[C@H](C)NC1=O; target = sapA (Haemophilus influenzae, UniProt Q4QL73); assay = binding, SPR; setting = 25 °C, together with: immobilised oxidised defensin loop peptide; Kd = 0.0171 µM
Molecule = CC#Cc1cc2ccccc2c2ccccc12; target = CYP1B1; assay = binding, fluorescence; setting = pH 7.4; Kd = < 2.5 µM and 1.6 µM
Molecule = c1c[nH]cn1; target = Cytochrome c oxidase subunit 2 (cbaB, Thermus thermophilus, UniProt Q5SJ80, N150T/Q151P/del152-156/Q158P/N159F); assay = UV-Vis absorption titration; setting = pH 7.0, 298 K, Cu(II) form; Kd = 2910 ± 50 µM
Molecule = [C-]#[O+]; target = ferrous H-NOX (Nostoc sp.); assay = koff over kon; Kd = ≤ 8 µM
Molecule = N#Cc1ccc(/C=C/C(=O)O)cc1; target = Soluble acetylcholine receptor (Aplysia californica, UniProt Q8WSF8); assay = binding, scintillation proximity; setting = together with: 20 nM [3H]epibatidine; Kd = 2.37 µM
Molecule = CC(C)CCC[C@@H](C)[C@H]1CC[C@@]2(C)C3=C(CC[C@]12C)[C@@]1(C)CC[C@H](O)C(C)(C)[C@@H]1CC3; target = Sterol 14-alpha demethylase (Acanthamoeba castellanii, UniProt L8GJB3); assay = sterol binding, spectral titration; setting = 40% w/v HPCD; Kd = 60 ± 12 µM
Molecule = [Mn+2]; target = methionine aminopeptidase; assay = metal binding, activator, activity titration; test system = ATCC 17978; setting = divalent metal ion Kd, together with: Met-AMC substrate; Kd = 0.33 µM
Molecule = c1ccc2c(c1)-c1cccc3c1c-2cc1ccccc13; target = CYP1B1; assay = binding, fluorescence; setting = pH 7.4; Kd = 1.1 µM and < 2.5 µM
Molecule = Nc1ncnc2c1ncn2[C@H]1C[C@H](O)[C@@H](COP(=O)(O)OP(=O)(O)OP(=O)(O)O)O1; target = DNA-directed DNA polymerase, with primer/template (43, Escherichia phage RB69, UniProt Q38087, D222A/D327A/Y567A); assay = fluorescence titration; setting = dNTP opposite tC°; Kd = 100 ± 40 µM
Molecule = [Fe+2]; target = methionine aminopeptidase; assay = metal binding, activator, activity titration; test system = ATCC 17978; setting = divalent metal ion Kd, together with: Met-AMC substrate; Kd = 0.54 µM
Molecule = [Cl-].[Cl-].[Zn+2]; target = Genome polyprotein, NS3 helicase domain (Hepatitis C virus genotype 1b, UniProt Q9WMX2); assay = binding, FRET; setting = pH 6.25, together with: 2 µM mantADP-BeF3; Kd = 90 µM
Molecule = NC(=O)c1cccnc1; target = kptA (Runella slithyformis, UniProt A0A7U3ZK32); assay = isothermal titration calorimetry; setting = 17 °C; Kd = no binding
Molecule = CC(=O)N[C@@H](CC(C)C)C(=O)N[C@@H](CCCCN)C(=O)N[C@@H](CCCCN)C(=O)N[C@@H](CC(C)C)C(=O)N[C@@H](CC(C)C)C(=O)N[C@@H](CCCCN)C(=O)N[C@@H](CC(C)C)C(=O)N[C@@H](CC(C)C)C(=O)N[C@@H](CCCCN)C(=O)N[C@@H](CCCCN)C(=O)N[C@@H](Cc1c[nH]c2ccccc12)C(=O)N[C@@H](CC(C)C)C(=O)N[C@@H](CCCCN)C(=O)N[C@@H](CC(C)C)C(=O)N[C@@H](C)C(=O)NCC(N)=O; target = HCV IRES domain IV hairpin; assay = competitive fluorescence anisotropy; setting = pH 7.4, 20 °C, together with: rhodamine-Rev peptide; Kd = 0.0044 ± 0.0003 µM
Molecule = O=C(O)COc1ccc(Cl)cc1Cl; target = PIN8 (Arabidopsis thaliana, UniProt Q9LFP6); assay = cell-free assay; Kd = 60 µM
Molecule = CC(C)[C@H](NC(=O)[C@H](CC(N)=O)NC(=O)CNC(=O)[C@H](CC(=O)O)NC(=O)[C@H](CCCNC(=N)N)NC(=O)[C@H](CC(N)=O)NC(=O)[C@@H](N)CC(=O)O)C(=O)N[C@@H](Cc1ccc(O)cc1)C(=O)N[C@@H](Cc1ccc(O)cc1)C(=O)N[C@@H](Cc1ccccc1)C(=O)O; target = Serine endoprotease DegS (degS, Escherichia coli, UniProt P0AEE3, D320A); Kd = 0.2 µM
Molecule = CC1=C[C@H](O)CC(C)(C)[C@H]1/C=C/C(C)=C/C=C/C(C)=C/C=C/C=C(C)/C=C/C=C(C)/C=C/C1=C(C)C[C@@H](O)CC1(C)C; target = GSTP1; assay = binding, SPR; Kd = 1.33 µM
Molecule = Nc1ncnc2c1ncn2[C@H]1C[C@H](O)[C@@H](COP(=O)(O)OP(=O)(O)OP(=O)(O)O)O1; target = DNA polymerase IV, with DNA (dbh, Saccharolobus solfataricus, UniProt Q97W02); assay = dNTP incorporation, substrate, single-turnover kinetics; setting = 37 °C, insertion opposite lesion, together with: DNA with dG-C8-N-ABA lesion, Dpo4 120 nM; Kd = 640 ± 170 µM
Molecule = NC(=O)c1ccc[n+]([C@@H]2O[C@H](COP(=O)([O-])OP(=O)(O)OC[C@H]3O[C@@H](n4cnc5c(N)ncnc54)[C@H](O)[C@@H]3O)[C@@H](O)[C@H]2O)c1; target = Kynurenine 3-monooxygenase (Pseudomonas fluorescens, UniProt Q84HF5); assay = fluorescence polarization displacement; setting = pH 7.0, together with: 30 nM fluorescent probe; Kd = 670 ± 70 µM

Some of these lines once more:
Molecule = CC(=O)N[C@@H](CC(C)C)C(=O)N[C@@H](CCCCN)C(=O)N[C@@H](CCCCN)C(=O)N[C@@H](CC(C)C)C(=O)N[C@@H](CC(C)C)C(=O)N[C@@H](CCCCN)C(=O)N[C@@H](CC(C)C)C(=O)N[C@@H](CC(C)C)C(=O)N[C@@H](CCCCN)C(=O)N[C@@H](CCCCN)C(=O)N[C@@H](CC(C)C)C(=O)N[C@@H](CC(C)C)C(=O)N[C@@H](CCCCN)C(=O)N[C@@H](Cc1c[nH]c2ccccc12)C(=O)N[C@@H](C)C(=O)NCC(N)=O; target = HCV IRES domain IV hairpin; assay = competitive fluorescence anisotropy; setting = pH 7.4, 20 °C, together with: rhodamine-Rev peptide; Kd = 0.00069 ± 6e-05 µM
Molecule = CC[C@H](C)[C@@H]1NC(=O)CNC(=O)[C@H](C)NC(=O)[C@@H]2CCCN2C(=O)[C@H]([C@@H](C)CC)NC(=O)[C@H](CCCNC(=N)N)NC(=O)[C@@H](N)CSSC[C@@H](C(=O)NCC(=O)NCC(=O)NCC(=O)NCC(=O)N[C@@H](CO)C(=O)N2CCC[C@H]2C(=O)N[C@@H](C)C(=O)N2CCC[C@H]2C(=O)N[C@@H](C)C(=O)N[C@@H](CCCCN)C(=O)O)NC(=O)[C@H](Cc2ccc(O)cc2)NC(=O)[C@H](CCCNC(=N)N)NC(=O)[C@H](CCCNC(=N)N)NC(=O)[C@H](CCC(=O)O)NC(=O)CNC(=O)[C@H](C)NC1=O; target = sapA (Haemophilus influenzae, UniProt Q4QL73); assay = binding, SPR; setting = 25 °C, together with: immobilised oxidised defensin loop peptide; Kd = 0.0171 µM
Molecule = CC#Cc1cc2ccccc2c2ccccc12; target = CYP1B1; assay = binding, fluorescence; setting = pH 7.4; Kd = < 2.5 µM and 1.6 µM
Molecule = c1c[nH]cn1; target = Cytochrome c oxidase subunit 2 (cbaB, Thermus thermophilus, UniProt Q5SJ80, N150T/Q151P/del152-156/Q158P/N159F); assay = UV-Vis absorption titration; setting = pH 7.0, 298 K, Cu(II) form; Kd = 2910 ± 50 µM
Molecule = [C-]#[O+]; target = ferrous H-NOX (Nostoc sp.); assay = koff over kon; Kd = ≤ 8 µM
